# Experimental data collected from several papers.
# Lines come from different studies, so protocols differ.
# Effect on: cell growth or viability
Compound,cell line,assay,setting,measurement,value
CC(=NNC(=O)c1ccncc1)c1ccc(Nc2nnc(-c3ccc(Cl)cc3)c3ccccc23)cc1,HepG2,MTT,5 µM,cell death,95.5%
CCCCC(=O)Nc1ccc(-c2ccc3ncn(C4CC4)c(=O)c3c2)cn1,HCC827,CCK-8,72 h,IC50,1690 nM
CC(C)Nc1ccnc(Nc2cccc(-c3ccccn3)c2)n1,BJ,ATP luminescence,72 h,EC50,> 13000 nM
CCCCn1cnc2ccc(-c3ccc(NC(=O)Nc4ccc(CC)cc4)nc3)cc2c1=O,NCI-H1975,CCK-8,72 h,IC50,> 10000 nM
c1ccc(Nc2nccc(NC3CCCCC3)n2)cc1,BJ,ATP luminescence,72 h,EC50,> 11000 nM
O=C(Nc1ccc(Oc2nnc(-c3ccc(Cl)cc3)c3ccccc23)cc1)c1ccccc1,MCF7,MTT,10 µM,cell death,93.3%
NC(=O)c1ccc(Nc2nccc(NC3CCCCC3)n2)cc1,BJ,ATP luminescence,72 h,EC50,> 13000 nM
CCC(=CCc1c(O)cc2c(c1O)C(=O)CC(c1ccc(O)cc1)O2)CC (stereo in doubt),HeLa,MTT,"50 µM, 48 h",inhibition,87.1%
CCCCn1cnc2ccc(-c3ccc(NC(=O)Nc4ccc(OC)cc4)nc3)cc2c1=O,HCC827,CCK-8,72 h,IC50,1120 nM
CC(=NNC(=O)c1ccc(N)cc1)c1ccc(Nc2nnc(-c3ccc(Cl)cc3)c3ccccc23)cc1,HepG2,MTT,0.312 µM,cell death,1.77%
CCCCC(=O)Nc1ccc(-c2cnc3ncn(CCC)c(=O)c3c2)cn1,NCI-H1975,CCK-8,72 h,IC50,2720 nM
CC(C)Nc1ccnc(Nc2cccc(C(C)(C)C)c2)n1,BJ,ATP luminescence,72 h,EC50,> 14000 nM

# Repeated from above:
Compound,cell line,assay,setting,measurement,value
CCCCn1cnc2ccc(-c3ccc(NC(=O)Nc4ccc(CC)cc4)nc3)cc2c1=O,NCI-H1975,CCK-8,72 h,IC50,> 10000 nM
